Experimental data gathered from unrelated publications.
A part holds a random share of what one study measured.

Study 1
Target: PABPC1L2, full length, GST fusion (mouse, UniProt A0ABA7IW68)
Method: RNAcompete
Form: RNA
Medium: in vitro
Tested at: 20 nM
Setting: 7-mer, probes averaged, single round
Reference: mean of 7-mers
Direction: higher = stronger binding
Construct (chain): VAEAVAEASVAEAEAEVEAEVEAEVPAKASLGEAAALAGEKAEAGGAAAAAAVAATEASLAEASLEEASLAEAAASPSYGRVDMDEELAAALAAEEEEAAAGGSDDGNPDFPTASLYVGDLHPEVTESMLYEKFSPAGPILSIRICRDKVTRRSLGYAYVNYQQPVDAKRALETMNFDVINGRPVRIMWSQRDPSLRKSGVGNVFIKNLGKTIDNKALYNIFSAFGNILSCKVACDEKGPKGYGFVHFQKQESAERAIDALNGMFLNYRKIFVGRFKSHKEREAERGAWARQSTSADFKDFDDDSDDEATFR
| Sequence | 7-mer Z-score |
| --- | --- |
| AAAAAUC | 14.2 |
| AGUACGA | -0.112 |
| UAGCGGA | 0.0189 |
| UAGCAGU | -0.311 |
| UUACCAC | -0.166 |
| AGUGGCC | 0.137 |
| UGCAAUC | -0.199 |
| CGGAAGG | -0.0736 |

Study 2
Target: Ras GTPase-activating protein-binding protein 1, full length (G3BP1, Homo sapiens, UniProt Q13283)
UniProt Q13283, sequence (whole entry, looked up): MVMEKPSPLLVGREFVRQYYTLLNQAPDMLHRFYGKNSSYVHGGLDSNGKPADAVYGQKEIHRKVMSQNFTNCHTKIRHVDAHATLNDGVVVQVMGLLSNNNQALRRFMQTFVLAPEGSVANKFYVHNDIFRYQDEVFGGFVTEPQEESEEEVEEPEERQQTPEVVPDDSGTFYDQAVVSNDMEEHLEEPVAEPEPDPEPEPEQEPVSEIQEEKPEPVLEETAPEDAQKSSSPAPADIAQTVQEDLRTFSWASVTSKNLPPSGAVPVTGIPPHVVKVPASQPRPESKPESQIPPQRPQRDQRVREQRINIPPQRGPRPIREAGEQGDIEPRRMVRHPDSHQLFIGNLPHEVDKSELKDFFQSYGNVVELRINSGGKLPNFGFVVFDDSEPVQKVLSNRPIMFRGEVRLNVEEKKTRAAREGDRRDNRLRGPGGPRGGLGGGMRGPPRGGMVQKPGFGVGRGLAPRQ
Method: RNA Bind-n-Seq
Form: RNA
Medium: in vitro
Tested at: 200 nM
Setting: whole 134-nt RNA, ends assumed
With: 150 mM KCl
Reference: input library
Direction: higher = stronger binding
| Sequence | log2 enrichment |
| --- | --- |
| GGGAGUUCUACAGUCCGACGAUCAGCCGAGCGGGAACGGAACCGACAGCUGGAGCGAGAGAAACGUCGGGAGCACAGUCGGGAGAGGGACAGGGAGAGAGAGAGAGAAAGGGAUGGAAUUCUCGGGUGUCAAGG | 0.474 |
| GGGAGUUCUACAGUCCGACGAUCCAAGUCCUGUGCUACACAUCGUAUGUACCGAAUCGGUUUUUUUGGUUUGGUUUGGAAAGUAUUAUGUUACGCCGUUCGGAUCUGCACUUCUGGAAUUCUCGGGUGUCAAGG | -0.956 |
| GGGAGUUCUACAGUCCGACGAUCAGUCCUGUGCUACACAUCGUAUGUACCGAAUCGGGUUUUUGGUUUUUGGGUUUUUGGAAAGUAUUAUGUUACGCCGUUCGGAUCUGCACUUGGAAUUCUCGGGUGUCAAGG | -1.21 |
| GGGAGUUCUACAGUCCGACGAUCUGGCCCUGGUGGCAUGCGGGGAGGAAGAGGUGGCCUCAUGGAUCGUGGUGGUCCCGGUGGAAUGUUUAGAGGUGGCCGUGGUGGAGACAGUGGAAUUCUCGGGUGUCAAGG | 0.451 |

Study 3
Target: Phosphate system positive regulatory protein PHO4, full length, GST-tagged (PHO4, Saccharomyces cerevisiae, UniProt P07270, residues 1-312)
Method: competition protein-binding microarray
Form: double-stranded DNA, one strand shown
Medium: in vitro
Tested at: 2 µM
Setting: whole 60-bp probe, lowest competitor level
With: Cbf1 competitor, 0.05 µM
Direction: higher = stronger binding
Residues (chain): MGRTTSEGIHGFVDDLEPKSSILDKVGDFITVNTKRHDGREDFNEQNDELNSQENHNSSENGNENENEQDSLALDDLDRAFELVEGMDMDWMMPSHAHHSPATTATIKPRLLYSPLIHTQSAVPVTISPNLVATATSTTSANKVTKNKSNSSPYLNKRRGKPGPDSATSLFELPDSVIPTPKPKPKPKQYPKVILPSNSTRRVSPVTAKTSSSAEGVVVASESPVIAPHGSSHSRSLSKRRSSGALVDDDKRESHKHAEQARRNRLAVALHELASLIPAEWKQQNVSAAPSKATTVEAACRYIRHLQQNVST
| Sequence | fluorescence intensity |
| --- | --- |
| GCAGCCAGGAGCTGGCACGGCGCCAACTGAAAAGTTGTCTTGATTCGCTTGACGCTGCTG | 4560 a.u. |
| GTCTTGTCTCATTGGCCAGTGGGTGTCCCCACTTCAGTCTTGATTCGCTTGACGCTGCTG | 3640 a.u. |
| TGCGCAACAACTTGTTTAGTGGGTGTATGTCTAGAAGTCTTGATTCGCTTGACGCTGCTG | 4530 a.u. |
| TAATGAACTTTGTCCCACGTGCGGACATCATTTACTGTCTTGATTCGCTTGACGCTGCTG | 19600 a.u. |
| TTTGACTGCGTCGCGGGCGTGCTGTACGACCTCGACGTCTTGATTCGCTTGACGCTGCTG | 6770 a.u. |

Other studies, line by line
| Molecule | target | assay | system | setting | how to read | quantity | result |
| --- | --- | --- | --- | --- | --- | --- | --- |
| PhoQ, residues 284 288 289 292 302 303 DDMDFR | PhoP, residues 12 14 15 18 19 NHTVL (Escherichia coli, UniProt P23836) | Sort-seq, item: YFP reporter | E. coli | PhoQ-PhoP variant library, with: 10 µM Mg2+ | reference: high Mg2+ state, higher = stronger signaling | fold induction | 0.918 |
